Measurements from different studies.
Values joined by “and” are separate records of one study, mostly repeats; a detail may differ. ± marks the error that the study gave.

Compound	tested on	test	system	setting	scale	measurement	value
Cc1ccc(OC2CN(C)C2)cc1C(=O)N[C@H](C)c1cc(-c2cnn(C)c2)nc2ccccc12	Vero E6			250 µM		viability	0.165% and 0.33% and 0%
O=C1NC2(CC2)COc2ncc(F)cc2[C@H]2COCCN2c2ccn3ncc1c3n2			Sprague-Dawley rats, male, blood	oral, 5 mg/kg/day, end of treatment, 4-week subacute toxicity		fibrinogen	2.09 ± 0.31 g/L
Oc1c(Br)cc(Br)c2nc3cc(C(F)(F)F)ccc3nc12		haemolysis		200 µM		haemolysis	≤ 1%
CC[C@H](C)[C@H](NC(=O)[C@H](CCCCN)NC(=O)CNC(=O)[C@H](CC(C)C)NC(=O)[C@H](Cc1ccccc1)NC(=O)[C@H](CCCCN)NC(=O)[C@H](CO)NC(=O)[C@H](Cc1ccccc1)NC(=O)[C@H](Cc1c[nH]c2ccccc12)NC(=O)[C@H](CCC(N)=O)NC(=O)[C@@H](NC(=O)[C@H](Cc1ccccc1)NC(=O)CCCCCNC(=O)CN1CCN(CC(=O)O)CCN(CC(=O)O)CCN(CC(=O)O)CC1)C(C)C)C(=O)N[C@@H](CCC(=O)O)C(=O)N1CCC[C@H]1C(=O)N[C@@H](CC(=O)O)C(=O)N[C@H](C(=O)N[C@@H](CO)C(=O)N[C@@H](CCC(N)=O)C(=O)N[C@H](C(=O)N[C@@H](CCC(N)=O)C(=O)N[C@@H](CC(=O)O)C(=O)N1CCC[C@H]1C(=O)N[C@@H](CC(N)=O)C(=O)N[C@@H](CC(=O)O)C(=O)N[C@@H](CCC(N)=O)C(=O)N[C@@H](Cc1ccc(O)cc1)C(=O)N[C@@H](CCC(=O)O)C(=O)N1CCC[C@H]1C(=O)N[C@@H](Cc1ccccc1)C(=O)O)C(C)C)C(C)C [copper-64 labelled]		dynamic PET	mouse both sexes, CT26 tumour, untreated, tumour	intravenous, 100 µCi/mouse, 570 s		SUVmean	0.86 SUV
Cc1ccc(OCCN(C)C)cc1C(=O)N[C@H](C)c1cc(-c2ccc(C(F)(F)F)s2)nc2ccccc12	Vero E6			125 µM		viability	0.636% and -1.69%
CN1Cc2cc(Cl)ccc2-n2c(nnc2C2CCN(c3cccc([18F])n3)CC2)C1			C57BL/6 mouse male, testis	intravenous, dose not given, 5 min, added: blocking agent 10 mg/kg		tissue uptake	1.48 ± 0.67 %ID/g
CSCC[C@H](N)C(=O)N[C@@H](C)C(=O)N[C@@H](Cc1c[nH]c2ccccc12)C(=O)N[C@@H](Cc1c[nH]cn1)C(=O)N[C@@H](CC(=O)O)C(=O)N[C@@H](CC(=O)O)C(=O)N[C@@H](CCC(=O)O)C(=O)N[C@@H](CCC(=O)O)C(=O)N[C@@H](Cc1ccccc1)C(=O)N[C@@H](C)C(=O)N[C@@H](CCCNC(=N)N)C(=O)N[C@@H](CCCNC(=N)N)C(=O)N[C@@H](CCCNC(=N)N)C(=O)N[C@@H](CCCNC(=N)N)C(=O)NCCCCCC(=O)NCCCCC(NC(=O)CCCCCNC(=O)[C@H](CCCNC(=N)N)NC(=O)[C@H](CCCNC(=N)N)NC(=O)[C@H](CCCNC(=N)N)NC(=O)[C@H](CCCNC(=N)N)NC(=O)[C@H](C)NC(=O)[C@H](Cc1ccccc1)NC(=O)[C@H](CCC(=O)O)NC(=O)[C@H](CCC(=O)O)NC(=O)[C@H](CC(=O)O)NC(=O)[C@H](CC(=O)O)NC(=O)[C@H](Cc1c[nH]cn1)NC(=O)[C@H](Cc1c[nH]c2ccccc12)NC(=O)[C@H](C)NC(=O)[C@@H](N)CCSC)C(=O)NCCCCC(NC(=O)C(CCCCNC(=O)CCCCCNC(=O)[C@H](CCCNC(=N)N)NC(=O)[C@H](CCCNC(=N)N)NC(=O)[C@H](CCCNC(=N)N)NC(=O)[C@H](CCCNC(=N)N)NC(=O)[C@H](C)NC(=O)[C@H](Cc1ccccc1)NC(=O)[C@H](CCC(=O)O)NC(=O)[C@H](CCC(=O)O)NC(=O)[C@H](CC(=O)O)NC(=O)[C@H](CC(=O)O)NC(=O)[C@H](Cc1c[nH]cn1)NC(=O)[C@H](Cc1c[nH]c2ccccc12)NC(=O)[C@H](C)NC(=O)[C@@H](N)CCSC)NC(=O)CCCCCNC(=O)[C@H](CCCNC(=N)N)NC(=O)[C@H](CCCNC(=N)N)NC(=O)[C@H](CCCNC(=N)N)NC(=O)[C@H](CCCNC(=N)N)NC(=O)[C@H](C)NC(=O)[C@H](Cc1ccccc1)NC(=O)[C@H](CCC(=O)O)NC(=O)[C@H](CCC(=O)O)NC(=O)[C@H](CC(=O)O)NC(=O)[C@H](CC(=O)O)NC(=O)[C@H](Cc1c[nH]cn1)NC(=O)[C@H](Cc1c[nH]c2ccccc12)NC(=O)[C@H](C)NC(=O)[C@@H](N)CCSC)C(N)=O (stereo partly drawn)			C57BL/6 mouse female, skull	dose not given, 3 h	baseline: total	mean tissue distribution	17%
C/C(=N\OCCCN1CCCCC1)c1ccc(C(F)(F)F)cc1			rhesus monkey	dose not given, after dosing		systolic blood pressure	151 mmHg and 108 mmHg
N#[11C]c1ccc(-c2csc(NN=C3CCCC3)n2)cc1		dynamic PET/CT	C57BL/6 mouse, heart	intravenous, dose not given, 1.0 min		peak radioactivity uptake	1.8 SUV
Cc1ccc(OCC(=O)N(Cc2cccs2)c2ccn[nH]2)cc1		micronucleus	CD-1 mouse Crl:CD-1(ICR), male, bone marrow	oral, 1500 mg/kg/day, 3 days		PCE to total erythrocyte ratio	0.63 ± 0.06
CC(C)[C@@H]1NC(=O)CNC(=O)[C@H](CC(N)=O)NC(=O)[C@H](CCCNC(=N)N)NC(=O)[C@H](Cc2ccc(O)cc2)NC(=O)[C@H](C(C)C)NC(=O)[C@@H](NC(=O)[C@@H](NC(=O)[C@H](CC(N)=O)NC(=O)[C@H](Cc2c[nH]c3ccccc23)NC(=O)[C@H](C)NC(=O)[C@H](Cc2ccccc2)NC(=O)CNC(=O)[C@H](CCCCN)NC(=O)[C@H](Cc2ccccc2)NC(=O)[C@H](Cc2ccccc2)NC(=O)[C@H](CCCCN)NC(=O)OCC2c3ccccc3-c3ccccc32)C(C)C)CSSC[C@@H](C(=O)N[C@@H](Cc2c[nH]cn2)C(=O)N[C@@H](CCCNC(=N)N)C(=O)N[C@@H](CCCNC(=N)N)C(=O)N[C@@H](C)C(=O)N[C@@H](CC(N)=O)C(N)=O)NC(=O)[C@H](C(C)C)NC(=O)[C@H](CCCNC(=N)N)NC1=O			ICR mice, blood	intraperitoneal, 5 mg/kg, day 5		mean corpuscular volume	40.9 ± 1.17 fL
COC(=O)[C@@H](NC(=O)c1nn(Cc2ccc(F)cc2)c2cc(OCCCCNC(=N)N)ccc12)C(C)(C)C			mouse	intraperitoneal	baseline: compound over FUB, lower brain exposure	Kp,uu brain ratio	> 2400 fold
CCN(CCCCOc1ccc(CCC(=O)N2CCC(Cc3ccccc3)CC2)cc1OC)Cc1ccccc1			Sprague-Dawley rats, both sexes, urine	oral gavage, 25 mg/kg, 24 to 48 h	baseline: dose	excretion rate	0.0039 ± 0.0014%
CC(C)(CCCC/C=C/CCCCCC(C)(C)C(=O)O)C(=O)O			ICR mice, both sexes	oral, dose not given, 0.5 h		plasma concentration	20300 ng/mL
Cc1cc(-c2ccc3ccccc3c2)nnc1NCCN1CCN(C)CC1		metabolic stability	rat, liver microsomes	30 min		compound remaining	80.8%

Repeated from above:
Compound	tested on	test	system	setting	scale	measurement	value
Oc1c(Br)cc(Br)c2nc3cc(C(F)(F)F)ccc3nc12		haemolysis		200 µM		haemolysis	≤ 1%
CC[C@H](C)[C@H](NC(=O)[C@H](CCCCN)NC(=O)CNC(=O)[C@H](CC(C)C)NC(=O)[C@H](Cc1ccccc1)NC(=O)[C@H](CCCCN)NC(=O)[C@H](CO)NC(=O)[C@H](Cc1ccccc1)NC(=O)[C@H](Cc1c[nH]c2ccccc12)NC(=O)[C@H](CCC(N)=O)NC(=O)[C@@H](NC(=O)[C@H](Cc1ccccc1)NC(=O)CCCCCNC(=O)CN1CCN(CC(=O)O)CCN(CC(=O)O)CCN(CC(=O)O)CC1)C(C)C)C(=O)N[C@@H](CCC(=O)O)C(=O)N1CCC[C@H]1C(=O)N[C@@H](CC(=O)O)C(=O)N[C@H](C(=O)N[C@@H](CO)C(=O)N[C@@H](CCC(N)=O)C(=O)N[C@H](C(=O)N[C@@H](CCC(N)=O)C(=O)N[C@@H](CC(=O)O)C(=O)N1CCC[C@H]1C(=O)N[C@@H](CC(N)=O)C(=O)N[C@@H](CC(=O)O)C(=O)N[C@@H](CCC(N)=O)C(=O)N[C@@H](Cc1ccc(O)cc1)C(=O)N[C@@H](CCC(=O)O)C(=O)N1CCC[C@H]1C(=O)N[C@@H](Cc1ccccc1)C(=O)O)C(C)C)C(C)C [copper-64 labelled]		dynamic PET	mouse both sexes, CT26 tumour, untreated, tumour	intravenous, 100 µCi/mouse, 570 s		SUVmean	0.86 SUV
Cc1ccc(OCCN(C)C)cc1C(=O)N[C@H](C)c1cc(-c2ccc(C(F)(F)F)s2)nc2ccccc12	Vero E6			125 µM		viability	0.636% and -1.69%
